Results collected from several papers.
Protocols differ between the studies behind these lines. Values joined by “and” are separate records of one study, mostly repeats; a detail may differ. ± gives the spread as reported.

| SMILES | assay | system | conditions | scale | quantity | result |
| --- | --- | --- | --- | --- | --- | --- |
| CNc1cc(C)c(C(N)=O)cn1 |  | Han Wistar rats, male, plasma | oral, 30 mg/kg, 3.00 h |  | plasma concentration | 69.6 µM |
| CC[C@H](C)[C@@H]1NC(=O)[C@H](Cc2ccc(O)cc2)NC(=O)CCCSC[C@@H](C(=O)N(CC(=O)N[C@@H](CC(C)C)C(=O)NCC(N)=O)Cc2ccc(F)cc2)NC(=O)[C@H](CC(N)=O)NC(=O)[C@H](CCC(N)=O)NC1=O |  | healthy human females, plasma | intranasal, 400 µg single dose |  | Cmax | 0.198 ng/mL |
| N#C[C@@H]1CC(F)(F)CN1C(=O)CNC(=O)c1ccnc2c(NC(=O)C(CCCCNC(=O)CCOCCOCCOCCOCCOCCOCCNC(=O)CN3CCN(CC(=O)[O-])CCN(CC(=O)[O-])CCN(CC(=O)[O-])CC3)NC(=O)CCCc3ccc(I)cc3)cccc12.[68Ga+3] (stereo partly shown) |  | PBS | 60 min, 37 °C, 68Ga-labelled |  | radiochemical stability | 99.15 ± 0.6% |
| O=C1c2sc(-c3ccc(N4CCC(CO)CC4)nc3F)nc2CCN1c1cccnc1 |  | CD1 mouse, plasma | i.v., dose not given, 1.25 h |  | concentration | 1.51 ng/mL |
| COc1ccc2c(c1)CCn1c[n+]3c(c1-2)-c1ccc(OC)cc1CC3 |  | female NSG mice, blood | 6 mg/kg, day 20, 5 days per week |  | Hematocrit | 43.1 ± 0.85% |
| O=C1c2sc(-c3ccc(N4CCC(F)C4)nc3F)nc2CCN1c1cccnc1 (stereo not shown) |  | CD1 mouse, brain | i.v., dose not given, 0.5 h |  | concentration | 103 ng/g and 105 ng/g and 85.3 ng/g |
| CN(Cc1cc(C2CC2)on1)C(=O)c1cccc(-c2ccc(F)cc2)c1 |  | male ICR/CD-1 mouse, liver microsomes | 2 µM, 15 min, pH 7.5, without ABT |  | remaining compound | 39.6% |
| C/C(N)=N/C(=N\S(=O)(=O)c1ccc(C(F)(F)F)cc1)N1C[C@H](c2ccccc2)C(c2ccc(Cl)cc2)=N1 |  | male C57BL/6 mouse, plasma | intravenous, 5 mg/kg |  | Tmax | 0.5 h |
| O=C(O)CCCOc1ccc([18F])cc1-c1cc(-c2ccccc2C(F)(F)F)n(-c2ccccc2)n1 | OLINDA/EXM from mouse data | human adults, adrenal |  |  | absorbed dose | 10.5 µGy/MBq |
| O=C(Nc1cnccc1-c1ccc([18F])nc1)c1ccnc(NC(=O)C2CC2)c1 | ex vivo gamma counting | FVB/NJ mice, both sexes, adipose tissue | intravenous, 120 min |  | mean SUV | 0.051 |
| CCCCN1C(=O)c2cccc3c(NCCCCCCN4CCOCC4)ccc(c23)C1=O |  | chloroform |  |  | Stokes shift | 83 nm |
| [123I]c1ccc2nc(-c3ccc(-n4ccnn4)nc3)cn2c1 |  | male Wistar rat, spleen | intravenous, 4 MBq, 1 h |  | tracer uptake | 0.11 %ID/g |
| O=S(=O)(N[C@H]1CCO[C@@H](C2c3ccc(F)cc3CCc3cc(F)ccc32)C1)c1ccc(OC(F)(F)F)cc1 |  | mouse, brain | oral, 30 mg/kg, 2 h |  | brain concentration | ~2 µM |
| CCCCN1C(=O)c2cccc3c(NCCCN4CCOCC4)ccc(c23)C1=O |  | chloroform |  |  | fluorescence lifetime | 8.7 ns |
| COc1cc2c(cc1O)CCN1C[C@@H](CC(C)C)[C@H](O)C[C@H]21 | item: non-deuterated analyte | healthy human male, plasma | oral, 25 mg, geometric mean, [14C]-tetrabenazine dosed |  | MRT(0-t) | 9.77 h |
| N#Cc1cc(NC(=O)C2c3ccccc3C(=O)N(CC(F)(F)F)C2c2ccc[n+]([O-])c2)ccc1F (stereo not shown) |  | human | median, interim, dose-independent |  | terminal half-life | ~19 h |

| SMILES | assay | system | conditions | scale | quantity | result |
| --- | --- | --- | --- | --- | --- | --- |
| Cc1cc(C(=O)NC(C)(C)CO)cc(C)n1 | LC-MS metabolite profiling | Sprague-Dawley rat, both sexes, plasma | oral, 100 mg/kg of parent drug, 4 (unit not given) | higher = more metabolite | plasma peak area | 130000 a.u. |
| CCCCN1C(=O)c2cccc3c(NCCCCCN4CCOCC4)ccc(c23)C1=O |  | dioxane |  |  | Stokes shift | 80 nm |
| Cc1nc(N)nc2c1C(=O)N[C@@H](c1ccc(F)cc1-c1cccc(O[11CH3])n1)C2 | ex vivo biodistribution | mice, U87 subcutaneous xenograft, blood | 60 min post-injection, baseline, vehicle pre-treatment |  | SUV | 0.6 ± 0.1 |
| O=C(Nc1cnccc1-c1ccc([18F])cc1)c1ccnc(NC(=O)C2CC2)c1 |  | FVB/NJ mice, both sexes, brain | intravenous, 15 min, median, no P-gp inhibitor |  | SUV | 0.25 |
| CCCCN1C(=O)c2cccc3c(NCCCCN4CCOCC4)ccc(c23)C1=O |  | methanol |  |  | Stokes shift | 90 nm |
| N#C[C@@H]1CC(F)(F)CN1C(=O)CNC(=O)c1ccnc2c(NC(=O)CCOCCOCCOCCOCCOCCOCCNC(=O)C(CCCCNC(=O)CN3CCN(CC(=O)[O-])CCN(CC(=O)[O-])CCN(CC(=O)[O-])CC3)NC(=O)CCCc3ccc(I)cc3)cccc12.[68Ga+3] (stereo partly shown) |  | human serum | 30 min, 37 °C, 68Ga-labelled |  | radiochemical stability | 99.32 ± 0.2% |
| CC[C@H](C)[C@H](NC(=O)[C@H](Cc1ccc(O)cc1)NC(=O)[C@@H](NC(=O)[C@H](CCCNC(=N)N)NC(=O)[C@@H](N)CC(=O)O)C(C)C)C(=O)N[C@@H](Cc1c[nH]cn1)C(=O)N1CCC[C@H]1C(=O)O | LC-MS/MS | Sprague-Dawley rat, both sexes, plasma | subcutaneous, 10 mg/kg/day, day 0, 0.5 h, 30 min |  | plasma concentration | 11.7 ng/mL |
| CC#CC(=O)N1CCC[C@H]1c1nc(-c2ccc(C(=O)Nc3ccccn3)cc2)c2c(N)nccn12 |  | mouse, TMD8 tumour-bearing, plasma | 30 mg/kg twice daily, 12 h |  | trough concentration | 0.118 ng/mL |
| C=C(NC(=O)c1csc(-c2nc3c(cc2O)-c2nc(cs2)C(=O)NC(C(C)O)C(=O)NC(=C(C)OC)c2nc(cs2)C(=O)NC2c4nc(cs4)C(=O)NC(COC(=O)c4c5c6c(cccc6n4O)COC(=O)C(OC4CC(C)(O)C(N(C)C)C(C)O4)C2OC5)c2nc-3cs2)n1)C(N)=O (stereo not shown) |  | Sprague-Dawley rat, male, plasma | intravenous infusion, 2 mg/kg single dose |  | clearance | 42.9 mL/min/kg |
| CN1CCC[C@]1(C)/C=C/S(=O)(=O)NC(=O)Nc1c2c(cc3c1CCC3)CCC2 | item: neutrophil count decreased, possibly related | human | oral, 50 mg twice daily, 14 days, multiple ascending dose |  | subjects with adverse event | 0% |
| COc1cccc(OC)c1-c1cc(C(=O)NC2(C(=O)O)C3CC4CC(C3)CC2C4)nn1-c1ccc(C(=O)N(C)CCOCCN(C)C(=O)[C@H](CCCCNC(=O)[C@H](CC(C)C)NC(=O)C2OC2C(=O)O)NC(=O)CN2CCN(CC(=O)[O-])CCN(CC(=O)[O-])CCN(CC(=O)[O-])CC2)cc1C(C)C.[177Lu+3] (mixture of isomers) |  | mouse HT-29 xenograft | 24 h, biodistribution | relative to: tumour over stomach | tumour-to-stomach ratio | 15 |
| CCC1C=C(C)C(O)C(C)CC(OC)C2OC(O)(C(=O)C(=O)N3CCCCC3C(=O)OC(C(C)=CC3CCC(O)C(OC)C3)C(C)C(O)CC1=O)C(C)CC2OC (stereo not shown) |  | mouse C57BL/6, ear skin | topical, 10 µL of 37.1 mM, 6 h, 3% propylene glycol |  | concentration | 30700 ng/g |
| C=CC(=O)Nc1cc(Nc2nccc(-c3c[nH]c4ccccc34)n2)c(OC)cc1N(C)CCN(C)C |  | human plasma | 72 h, storage stability, low QC sample |  | recovery | 50.3% |
| CC(=O)N([O-])CCCCCNC(=O)CCC(=O)N([O-])CCCCCNC(=O)CCC(=O)N([O-])CCCCCN.[89Zr+4] | radio-TLC | aqueous buffer | 7 d, pH 7, 37 °C, 89Zr-labelled complex, added: DTPA 100-fold excess |  | intact complex | 93.3 ± 2.7% |
| COCC1CN(C2CCN(c3cc(OC)c(Nc4ncc(Br)c(Nc5ccc6c(c5P(C)(C)=O)OCCO6)n4)cc3C)CC2)C1 | first-in-human trial | human | oral, 30 mg once daily | treatment-related leading to dose reduction | adverse events | 0% |

Repeated from above:
| SMILES | assay | system | conditions | scale | quantity | result |
| --- | --- | --- | --- | --- | --- | --- |
| CC[C@H](C)[C@H](NC(=O)[C@H](Cc1ccc(O)cc1)NC(=O)[C@@H](NC(=O)[C@H](CCCNC(=N)N)NC(=O)[C@@H](N)CC(=O)O)C(C)C)C(=O)N[C@@H](Cc1c[nH]cn1)C(=O)N1CCC[C@H]1C(=O)O | LC-MS/MS | Sprague-Dawley rat, both sexes, plasma | subcutaneous, 10 mg/kg/day, day 0, 0.5 h, 30 min |  | plasma concentration | 11.7 ng/mL |
| CC#CC(=O)N1CCC[C@H]1c1nc(-c2ccc(C(=O)Nc3ccccn3)cc2)c2c(N)nccn12 |  | mouse, TMD8 tumour-bearing, plasma | 30 mg/kg twice daily, 12 h |  | trough concentration | 0.118 ng/mL |
| C=C(NC(=O)c1csc(-c2nc3c(cc2O)-c2nc(cs2)C(=O)NC(C(C)O)C(=O)NC(=C(C)OC)c2nc(cs2)C(=O)NC2c4nc(cs4)C(=O)NC(COC(=O)c4c5c6c(cccc6n4O)COC(=O)C(OC4CC(C)(O)C(N(C)C)C(C)O4)C2OC5)c2nc-3cs2)n1)C(N)=O (stereo not shown) |  | Sprague-Dawley rat, male, plasma | intravenous infusion, 2 mg/kg single dose |  | clearance | 42.9 mL/min/kg |
| CN1CCC[C@]1(C)/C=C/S(=O)(=O)NC(=O)Nc1c2c(cc3c1CCC3)CCC2 | item: neutrophil count decreased, possibly related | human | oral, 50 mg twice daily, 14 days, multiple ascending dose |  | subjects with adverse event | 0% |
| COc1cccc(OC)c1-c1cc(C(=O)NC2(C(=O)O)C3CC4CC(C3)CC2C4)nn1-c1ccc(C(=O)N(C)CCOCCN(C)C(=O)[C@H](CCCCNC(=O)[C@H](CC(C)C)NC(=O)C2OC2C(=O)O)NC(=O)CN2CCN(CC(=O)[O-])CCN(CC(=O)[O-])CCN(CC(=O)[O-])CC2)cc1C(C)C.[177Lu+3] (mixture of isomers) |  | mouse HT-29 xenograft | 24 h, biodistribution | relative to: tumour over stomach | tumour-to-stomach ratio | 15 |
